Experimental data gathered from unrelated publications.
Each numbered part is a random draw from the data of one study; scales do not carry over between parts. Changes are numbered by the printed parent chain.

Sample 1
Target: RING finger protein unkempt homolog, zinc fingers 1-6, GST-SBP tag (UNK, Homo sapiens, UniProt Q9C0B0, residues 30-357)
UniProt Q9C0B0, sequence (30-357, looked up): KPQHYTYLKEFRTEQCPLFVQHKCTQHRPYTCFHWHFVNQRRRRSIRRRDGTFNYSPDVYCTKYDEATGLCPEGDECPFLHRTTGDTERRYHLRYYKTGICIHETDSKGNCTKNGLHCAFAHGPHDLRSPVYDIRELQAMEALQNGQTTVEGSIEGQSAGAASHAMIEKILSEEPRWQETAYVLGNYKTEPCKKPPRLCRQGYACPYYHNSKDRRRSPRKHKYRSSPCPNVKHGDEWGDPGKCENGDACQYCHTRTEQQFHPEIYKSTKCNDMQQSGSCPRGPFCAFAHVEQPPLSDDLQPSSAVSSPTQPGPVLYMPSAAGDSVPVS
Method: RNA Bind-n-Seq
Form: RNA
Sample: in vitro
Concentration: not given
Setting: RNA with constant flanks, human and mouse sites, ends assumed
Baseline: input RNA pool
Reading: higher = stronger binding
All sequences stand within: GGGAGUUCUACAGUCCGACGAUC … CAACAGAGGAUUGAGCAUCA
Strand	bound/input enrichment [ratio]
GACAUGUUCCUGGAAGCUCUGGGAUACACUUGGCAUGAUACUUGCUUUGUGUGCUCUGUGUGUUGUGAAAGUUUGGAAGGGCAGACAUUUUUCUCCAAGAAGGACAAGCCACUUUGCAAA	0.228
GAGUGCUUAAGCUGCCAACAGUUAGAAGAUGCUAUUUAUUUGUGUCUGUAAGUUUGUACAUAGUAAUGCCAGCCUUGUUGCUGAAUUUUUUAUUUGGGGGGAGAUGACUUUGAAUUUUGU	10.6
GCUUGGAUUUUGAAAUUUACUGUAACUGUCAGUGUACACGUCUGGACCCCGUUUCAUUUUUACACCAAUUUGGUAAAAAUGCUGCUCUCAGCCUCCCACAAUUAAACCGCAUGUGAUCUC	0.331
CAGCUCUCCCGGGGGGACUCUGGGACCCGGGACACUGUUCUCAAGCUGCUACUGAAUGGAGCCCGCCAUCUGGGUUAUACCCUUUGUAAACAAAUAGGUACCCUGCUGGCCGAGCUGCGG	0.281
UUCACCGAAGUUGCAAUUGGCCCAUCCGUGCUCAAUGCUGCCAGAGAUGAUAUUAGCAAGCUUAGGAAUACACUUCGCUUUCUUUUGGGAAAUGUGGCUGAUUUCAACCCAGAAACAGAU	0.319
AGGAAGAACUAUGCAUCUGCCUCUCUCUCUGAAUUCCUGUCUGAGGAAGUAGAAGCAGAAGUGAAAGCAGCUGCAGAGAUAUCUAUGGGAACAGAGGUUUCUGAAGAAGAUAUUUGCAAC	0.206
CACACCCUGGCCGCCUACUACCCCGACCUGCCCACCCCAGAACAGCAGCAAGACAUGGCCCAGUUCAUACAUUUAUUUUCUAAGUUUUACCCCUGUGAGGAGUGUGCUGAAGACCUAAGA	0.399
CUUAAUGUUUCAUAAGGAGUAAAUUCUGGCAACCAUGUUUCUUGACUUCAUCUACGGUAUAUAGAGCAUAAGGAAUGACAGCAAUUUAAUAUGUACAGGUAGAUAAAUAACCAGCAUCUU	0.255

Sample 2
Target: CCNE2, cyclin fold, Cln2 fusion (human)
Method: yeast growth competition, sequencing
Sample: yeast
Setting: weak parent motif
Baseline: not given
Reading: higher = stronger binding
Parent: CDC6 docking peptide (human); TLKGRRLVFDNQL; partner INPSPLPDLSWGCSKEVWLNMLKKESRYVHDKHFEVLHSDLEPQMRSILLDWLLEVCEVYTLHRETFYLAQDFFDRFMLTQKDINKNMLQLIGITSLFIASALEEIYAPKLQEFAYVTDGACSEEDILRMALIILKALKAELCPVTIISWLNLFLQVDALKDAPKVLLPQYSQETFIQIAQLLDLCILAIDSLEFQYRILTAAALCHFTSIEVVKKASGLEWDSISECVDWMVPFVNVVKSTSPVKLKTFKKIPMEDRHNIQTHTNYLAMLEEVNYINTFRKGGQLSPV
Change	normalised enrichment score
TLKGRRLVHDNQL [F9H]	0.148
TLLGRRLVFDNQL [K3L]	0.816
TLAGRRLVFDNQL [K3A]	0.382
TLKGRRLVFRNQL [D10R]	0.787

Sample 3
Target: Ras GTPase-activating protein-binding protein 1, RRM domain (G3BP1, Homo sapiens, UniProt Q13283)
UniProt Q13283, sequence (whole entry, looked up): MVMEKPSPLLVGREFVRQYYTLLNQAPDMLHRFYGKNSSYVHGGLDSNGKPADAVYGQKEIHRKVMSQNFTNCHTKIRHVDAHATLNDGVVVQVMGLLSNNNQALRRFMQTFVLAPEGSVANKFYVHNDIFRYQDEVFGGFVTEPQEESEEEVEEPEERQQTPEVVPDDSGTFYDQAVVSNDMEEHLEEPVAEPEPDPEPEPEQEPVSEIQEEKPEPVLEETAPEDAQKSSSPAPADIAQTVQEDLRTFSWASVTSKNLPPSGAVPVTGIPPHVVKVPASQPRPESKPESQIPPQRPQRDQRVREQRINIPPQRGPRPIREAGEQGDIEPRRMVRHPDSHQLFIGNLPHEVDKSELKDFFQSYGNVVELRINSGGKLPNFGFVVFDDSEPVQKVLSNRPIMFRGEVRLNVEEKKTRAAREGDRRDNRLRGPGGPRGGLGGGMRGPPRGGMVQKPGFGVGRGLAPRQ
Method: RNA Bind-n-Seq
Form: RNA
Sample: in vitro
Concentration: 1 µM
Setting: whole 134-nt RNA, ends assumed
Added: 150 mM KCl
Baseline: input library
Reading: higher = stronger binding
All sequences stand within: GGGAGUUCUACAGUCCGACGAUC … UGGAAUUCUCGGGUGUCAAGG
Strand	log2 enrichment
AAGUCCUGUGCUACACAUCGUAUGUACCGAAUCGGAAAAAGGAAAGGAAAAAAAGGAAAGUAUUAUGUUACGCCGUUCGGAUCUGCACUU	0.101
AGUCCUGUGCUACACAUCGUAUGUACCGAAUCGGGUUUUUGGGUUUUUUUGGGAGGGAAAGUAUUAUGUUACGCCGUUCGGAUCUGCACU	0.306
UUCCUUCCACGACCCCUGAAGAGCAGCGGUGGGUCUGAGCAUCCUAUCUCCAGGAAGCAGGCCAGCAGGCAAGCCAGCUGCCACCUCGUC	-0.206
GUCCUGUGCUACACAUCGUAUGUACCGAAUCGGGGAAAGGGGUUUUUUUGGGGUGGGGAAAGUAUUAUGUUACGCCGUUCGGAUCUGCAC	1.01
CUCAAGUCCUGUGCUACACAUCGUAUGUACCGAAUCGGGAAGGGGAAGGGAAGGAAAGUAUUAUGUUACGCCGUUCGGAUCUGCACUUCC	-0.221
CACAGACAACACGCACCCACACAGACACAGAGGGAAGGGGUUGGGAUGGGGACAGGGUGCACCGCAGGGCGGGGUAGGACCCCAGCCCCU	-0.0502
CUCAAGUCCUGUGCUACACAUCGUAUGUACCGAAUCGGUUUUUGGUUUGGAGGAAAGUAUUAUGUUACGCCGUUCGGAUCUGCACUUCCA	-0.211
UUUGCUGAUUUCUGGCUGGCGGAUCAGCUGAACAGCCUGUCAGUGAUACUGAUGGACCUGGAAUAUAUGAUCUGCUUCUACAGUUUGGAG	-0.431

Further values, each from its own experiment
Substance	target	assay	system	setting	how to read	measurement	result
PhoQ, residues 284 288 289 292 302 303 SCCLKL	PhoP, residues 12 14 15 18 19 LHTVM (Escherichia coli, UniProt P23836)	Sort-seq, measured: YFP reporter	E. coli	PhoQ-PhoP variant library, added: 10 µM Mg2+	baseline: high Mg2+ state, higher = stronger signaling	fold induction	5.27

Some of these lines once more (sample 1):
Strand	bound/input enrichment [ratio]
AGGAAGAACUAUGCAUCUGCCUCUCUCUCUGAAUUCCUGUCUGAGGAAGUAGAAGCAGAAGUGAAAGCAGCUGCAGAGAUAUCUAUGGGAACAGAGGUUUCUGAAGAAGAUAUUUGCAAC	0.206
